Results of several laboratories.
± marks the error that the study gave.
USP51: Ubiquitin carboxyl-terminal hydrolase 51 (USP51, Homo sapiens, UniProt Q70EK9)
Adhesin FmlH lectin domain: Adhesin FmlH, lectin domain (Escherichia coli, UniProt Q1RBS0)
CACNA1H: Voltage-dependent T-type calcium channel subunit alpha-1H (CACNA1H, Homo sapiens, UniProt O95180)
MAL12: Alpha-glucosidase MAL12 (MAL12, Saccharomyces cerevisiae S288c, UniProt P53341)
CAPN1: Calpain-1 catalytic subunit (CAPN1, Homo sapiens, UniProt P07384)
HRH3: Histamine H3 receptor (HRH3, Homo sapiens, UniProt Q9Y5N1)
PTGS1: Prostaglandin G/H synthase 1 (PTGS1, Ovis aries, UniProt P05979)

| SMILES | target | assay | system | setting | inhibition |
| --- | --- | --- | --- | --- | --- |
| COc1cc(-c2cnn3c(C)c(C(=O)N4CCC(Cc5ccccc5)CC4)cnc23)cc(OC)c1OC | USP51 | enzyme activity, inhibitor | – | 1 µM | 13.9 ± 1.1% |
| C[Si](C)(C)C[C@H](CN)CC(=O)O | High affinity choline transporter 1 (Rattus norvegicus, UniProt Q9JMD7) | ligand displacement, radioligand | – | 250 µM | -11% |
| Nc1ccc(O[C@@H]2O[C@H](CO)[C@H](O)[C@H](O)[C@H]2O)cc1 | Adhesin FmlH lectin domain | binding to desialylated mucin, ELISA competition | UPEC UTI89 | 100 µM | 65.1 ± 1.4% |
| CC(=O)C12NC(C)(C)CC1(C)C(=O)C1=C2c2c(c3c4n2C(C)(C)CC2=C4C4(CC(C)(C)NC(C)(C4)C2=O)CC3(C)C)C(=O)C(C)(C)N1 (single isomer, unassigned; (+)) | CACNA1H | ion current, antagonist, whole-cell patch clamp | HEK293T | 10 µM | 2.66 ± 0.02% |
| COc1ccc(C2NCCc3cc(O)c(O)cc32)cc1 (stereo not shown) | MAL12 | enzyme activity, inhibitor | – | 100 µM, DMSO solvent, added: pNPG substrate | 42.2 ± 2.56% |
| C[C@@H](O)[C@H](NC(=O)c1ccc(OCc2ccccc2)cc1)C(=O)N[C@@H](CCc1ccccc1)C(=O)NCc1ccccc1Cl | CAPN1 | enzyme activity, inhibitor | – | 100 µM | 55% |
| O=C1c2sc(-c3ccc(N4CCC(CO)CC4)nc3F)nc2CCN1c1cccnc1 | HRH3 | ligand displacement, radioligand | – | 1 µM | 3% |
| Nc1nnc(SCc2nc3ccccc3c(=O)[nH]2)s1 | USP51 | enzyme activity, inhibitor | – | 1 µM | 5.5 ± 1.1% |
| CC(C)Cc1ccc(-c2nn(-c3ccc(S(C)(=O)=O)cc3)cc2C=NN=c2[nH]c(-c3ccc(Br)cc3)cs2)cc1 | PTGS1 | enzyme activity | – | 0.1 µM | 11.4% |
| CC(=O)N1C(=O)NC(C)=C(C(=O)OCC(C)C)[C@H]1c1cccc([N+](=O)[O-])c1 | CACNA1H | ion current, inhibitor, patch clamp | HEK293 | 10 µM | ~80% |
| COc1ccc(CN2C(=O)C3CCCCC3C2=O)cc1S(=O)(=O)NCc1ccc2c(c1)OCO2 (stereo not shown) | USP51 | enzyme activity, inhibitor | – | 1 µM | 1.9 ± 0.2% |
| Cc1ccc(-c2nn(-c3ccc(S(C)(=O)=O)cc3)cc2/C=N/N=C2/NC(=O)CS2)cc1 | EGFR (Homo sapiens, UniProt P00533, L858R) | kinase activity, inhibitor | – | 10 µM | 88.2% |
| C/C=C/C(=O)Nc1ccc2nc(NCCCCCN(C)C)nc(NCCCCCCN(C)C)c2c1 | KMT2C (Homo sapiens, UniProt Q8NEZ4) | enzyme activity, inhibitor, radiometric | – | 10 µM | 12% |
| COc1ccc(-c2ccc(CNCCc3ccc(S(N)(=O)=O)cc3)o2)cc1Cl | DRD2 (Homo sapiens, UniProt P14416) | enzyme activity, inhibitor | – | 10 µM | 13.3% |
| COc1cc(C(=O)Nc2ccccc2SCc2nnc(-c3ccccc3)o2)cc(OC)c1OC | USP51 | enzyme activity, inhibitor | – | 1 µM | 25.4 ± 5.6% |
| Cc1ccc(CNC(=O)C(CCc2ccccc2)NC(=O)C(NC(=O)c2ccc(OCc3ccc(C(C)(C)C)cc3)cc2)C(C)O)cc1 (stereo not shown) | Plasminogen (PLG, Homo sapiens, UniProt P00747) | enzyme activity, inhibitor | – | 100 µM | -18% |
| CN(Cc1ccc(/C=C/C(=O)NO)cc1)CC12CC3CC(CC(C3)C1)C2 | human ETA receptor | agonist radioligand binding | – | 0.05 µM | -8% |
| COc1cc(-c2cnn3ccc(NCCN(C)C)nc23)cc(OC)c1OC | crk3, with CYC6 (Leishmania mexicana, UniProt O15851) | IMAP fluorescence polarisation | – | 30 µM, with L. major CYC6 | 3% |
| O=Cc1ccc(CO)n1Cc1ccc(O)cc1 | MAL12 | inhibitor | – | 100 µg/mL, 0.4167 h, added: p-nitrophenyl glucoside substrate | 41.5 ± 1.93% |

| SMILES | target | assay | system | setting | inhibition |
| --- | --- | --- | --- | --- | --- |
| CCn1cc(-c2cccc(C(F)(F)F)c2)c2sc(C(=N)NC3CCS(=O)(=O)CC3)cc2c1=O | Bromodomain testis-specific protein, BD1 (BRDT, Homo sapiens, UniProt Q58F21) | – | – | 1 µM | -13.1% |
| CC(C)Cn1c(SCC(=O)N2CCc3ccccc3C2)nc2cc(Cl)ccc2c1=O | ADRA2C (Homo sapiens, UniProt P18825) | ligand displacement, radioligand | – | 10 µM | -5% |
| Cc1nc2c(F)cc(-c3nc(Nc4ccc(CNC(=O)CCCCCCC(=O)NO)cc4)ncc3F)cc2n1C(C)C | ATM (Homo sapiens, UniProt Q13315) | enzyme activity, inhibitor | – | 1 µM | 4% |
| CS(=O)(=O)c1ccc(-n2cc(C=NN=c3[nH]c(-c4ccc(Br)cc4)cs3)c(-c3ccc(Br)cc3)n2)cc1 | PTGS1 | enzyme activity | – | 0.1 µM | 20.5% |
| CC[C@H](C)[C@H](NC(=O)[C@@H](N)C(C)C)C(=O)N[C@@H](Cc1ccc(O)cc1)C(=O)NCC(=O)N1CCC[C@H]1C(=O)N[C@@H](CO)C(=O)N[C@H](C(=O)N[C@@H](Cc1ccccc1)C(=O)O)C(C)C | ACE (Homo sapiens, UniProt P12821) | enzyme activity, inhibitor, HPLC | – | 530 µg/mL | 75.3% |
| Cc1[nH]nc2c1N=C(c1ccccc1Cl)c1cnc(N3CCOCC3)cc1N2 | PTGER4 (Homo sapiens, UniProt P35408) | cell-free assay | – | 10 µM | 10% |
| OC[C@H]1O[C@@H](Oc2ccccc2Cl)[C@H](O)[C@@H](O)[C@H]1O | Adhesin FmlH lectin domain | binding to desialylated mucin, ELISA competition | UPEC UTI89 | 10 µM, added: desialylated bovine submaxillary mucin | 20.7 ± 5.5% |
| CS(=O)(=O)c1ccc(-n2cc(C=NN=c3[nH]c(-c4ccc([N+](=O)[O-])cc4)cs3)c(-c3ccc(Br)cc3)n2)cc1 | PTGS1 | enzyme activity | – | 0.01 µM | 6.49% |
| O=C1c2sc(-c3ccc(N4CCC(F)C4)nc3F)nc2CCN1c1cccnc1 (stereo not shown) | PTGFR (Homo sapiens, UniProt P43088) | ligand displacement, radioligand | – | 1 µM | -22% |
| Cc1c(C)c2ccc(O[C@@H]3O[C@H](CO)[C@H](O)[C@H](O)[C@H]3O)cc2oc1=O | Adhesin FmlH lectin domain | binding to desialylated bovine submaxillary mucin, inhibitor, ELISA competition | UPEC UTI89 | 1 µM | 10.2 ± 4.3% |
| COc1cc(-c2noc(CSc3nc(C)cc(O)n3)n2)cc(OC)c1OC | USP51 | enzyme activity, inhibitor | – | 1 µM | 4.8 ± 1% |
| N#Cc1ccccc1O[C@@H]1O[C@H](CO)[C@H](O)[C@H](O)[C@H]1O | Adhesin FmlH lectin domain | binding to desialylated mucin, ELISA competition | UPEC UTI89 | 10 µM, added: desialylated bovine submaxillary mucin | 30.4 ± 1.8% |
| CC1Cc2ccccc2N1C(=O)CN1CCN(Cc2ccccc2)CC1 (stereo not shown) | HTR5A (Homo sapiens, UniProt P47898) | radioligand binding | – | concentration not given, added: [3H]LSD | 12.9% |
| COC(=O)c1cccc(-c2ccccc2O[C@@H]2O[C@H](CO)[C@H](O)[C@H](O)[C@H]2O)c1 | Adhesin FmlH lectin domain | binding to desialylated bovine submaxillary mucin, inhibitor, ELISA competition | UPEC UTI89 | 1 µM | 3.7 ± 3.5% |
| C[Si]1(C[C@H](CN)CC(=O)O)CCCC1 | HRH3 | ligand displacement, radioligand | – | 70 µM | 0% |
| Cc1ccccc1O[C@H]1O[C@H](CO)[C@H](O)[C@H](O)[C@H]1O | Adhesin FmlH lectin domain | binding to desialylated mucin, ELISA competition | UPEC UTI89 | 100 µM | 30 ± 5.4% |
| CC(C)NC(=O)[C@H](CCc1ccccc1)NC(=O)[C@H](CC(=O)NCC(C)(C)C)NC(=O)CCc1ccccc1 | CAPN1 | enzyme activity, inhibitor | – | 100 µM | 15% |
| COc1cc(OC)c(F)c(/C=C/c2cnc3ccn(S(=O)(=O)c4cn(CCF)cn4)c3n2)c1F | PDGFRB (Homo sapiens, UniProt P09619) | – | – | 100 nM | 3.1% |

A few entries again:
| SMILES | target | assay | system | setting | inhibition |
| --- | --- | --- | --- | --- | --- |
| O=C1c2sc(-c3ccc(N4CCC(CO)CC4)nc3F)nc2CCN1c1cccnc1 | HRH3 | ligand displacement, radioligand | – | 1 µM | 3% |
| CC(C)Cc1ccc(-c2nn(-c3ccc(S(C)(=O)=O)cc3)cc2C=NN=c2[nH]c(-c3ccc(Br)cc3)cs2)cc1 | PTGS1 | enzyme activity | – | 0.1 µM | 11.4% |
| CC(C)NC(=O)[C@H](CCc1ccccc1)NC(=O)[C@H](CC(=O)NCC(C)(C)C)NC(=O)CCc1ccccc1 | CAPN1 | enzyme activity, inhibitor | – | 100 µM | 15% |
| CC(=O)C12NC(C)(C)CC1(C)C(=O)C1=C2c2c(c3c4n2C(C)(C)CC2=C4C4(CC(C)(C)NC(C)(C4)C2=O)CC3(C)C)C(=O)C(C)(C)N1 (single isomer, unassigned; (+)) | CACNA1H | ion current, antagonist, whole-cell patch clamp | HEK293T | 10 µM | 2.66 ± 0.02% |
| CC(=O)N1C(=O)NC(C)=C(C(=O)OCC(C)C)[C@H]1c1cccc([N+](=O)[O-])c1 | CACNA1H | ion current, inhibitor, patch clamp | HEK293 | 10 µM | ~80% |
